Experimental data gathered from unrelated publications.
Every numbered part comes from another study and shows a few of its results, in no order. Substitutions count along the parent as printed.

Series 1 — method: protein binding microarray; molecule type: double-stranded DNA, one strand shown; sample: in vitro; tested at: not given; reference: not given; reading: higher = stronger binding
Target: Histone acetyltransferase KAT6A, winged helix 2, GST fusion (KAT6A, Homo sapiens, UniProt Q92794, residues 85-181)
Notes: 8-mer, flanks averaged, mean of 2 arrays, mostly near background
Construct (chain): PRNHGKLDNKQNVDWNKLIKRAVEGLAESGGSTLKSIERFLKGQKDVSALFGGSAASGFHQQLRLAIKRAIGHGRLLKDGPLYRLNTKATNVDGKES
Strand | E-score
CGTAAAAG | -0.113
TACCTGGA | 0.0574
ACAAACGT | -0.0562
AACTACTA | -0.0116
ATTACCCC | -0.0644
AAGCACGA | 0.152
ATCGCGTC | 0.0873
AAAGGAAA | 0.0462
ACGCTGAT | -0.0522
CGTAATTC | -0.122
CTTCCTAA | -0.00821
AATAGTTA | -0.0498
CGCGTTAG | 0.162

Series 2 — method: protein-binding microarray; molecule type: double-stranded DNA, one strand shown; sample: in vitro; tested at: not given; reading: higher = stronger binding
Target: Protein max, full length (MAX, Homo sapiens, UniProt P61244-2, residues 1-151)
Notes: k-mer, scored over probes, only values ≥0.25
Strand | E-score
ACATGTTC | 0.368
CATGCGGA | 0.44
CAGTCATG | 0.279
AACCACGT | 0.466
ACCATATG | 0.383
CATGGCGC | 0.32
CAACACGA | 0.293
ACGCACGA | 0.372
ACCATGCG | 0.461
TCACGAGA | 0.293
CTCACGCC | 0.296
GTGCGGCA | 0.324
CATATGGC | 0.357

Series 3 — target: CCNA1, cyclin fold, Cln2 fusion (human); method: yeast growth competition, sequencing; sample: yeast; notes: weak parent motif; reference: not given; reading: higher = stronger binding
Parent: RB1 docking peptide (human); PKPLKKLRFDIEG; partner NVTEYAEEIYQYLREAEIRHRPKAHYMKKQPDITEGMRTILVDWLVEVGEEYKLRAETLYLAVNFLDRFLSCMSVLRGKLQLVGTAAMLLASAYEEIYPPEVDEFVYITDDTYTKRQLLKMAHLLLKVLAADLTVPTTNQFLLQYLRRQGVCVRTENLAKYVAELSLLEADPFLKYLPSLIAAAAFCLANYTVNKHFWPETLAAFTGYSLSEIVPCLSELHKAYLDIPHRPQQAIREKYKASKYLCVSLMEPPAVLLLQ
Variant | normalised enrichment score
I11W | 0.104
P1S | 0.0996
E12P | 0.445
L7A | 0.289
L7N | 0.171
K6C | 0.187
L7S | 0.396
K6V | 0.387
L7I | 0.436
F9A | 0.436
P1E | 0.535
K5S | 0.571
D10P | 0.525
K6I | 0.528

Series 4 — method: RNA Bind-n-Seq; molecule type: RNA; sample: in vitro; tested at: 365 nM; reference: no-protein control; reading: higher = stronger binding
Target: RNA binding protein fox-1 homolog 2, RRM domain, GST-SBP tag (RBFOX2, Homo sapiens, UniProt O43251-10, residues 100-194)
Notes: natural RNA segment, single round, ends assumed
Shared flanks, not repeated: GGGAGUUCUACAGUCCGACGAUC … UGGAAUUCUCGGGUGCCAA
Residues (chain): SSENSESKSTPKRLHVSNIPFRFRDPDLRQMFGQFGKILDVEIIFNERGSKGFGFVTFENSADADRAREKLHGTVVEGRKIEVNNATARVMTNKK
Strand | RBNS enrichment (R)
GUUGUAAACCUCUUUAUUUUGGUGACUGUGACCACUUCUUUGUAGCCACCAAUUGUAGUGACCAGUUGCCUAAUGGUCACUUUCUGACUCCAGCCUUGCCAGCCUGACUC | 0.719
UCUGAGGUGUUCAGAAUCUGACCCUCUUGGCAGAGAUCUGUCUGGGAAAUUUAACCAGGCAGUGGAUCAGCCAAGCCCCUCCCCAUUCUCACCAACCCCAGCUGGGACCA | 0.303
GUGCAGCCACACAGGCUGCAACCUUCCACUCGCAGCCGCUGCUGACACCUGGCUGCCGACCUCACUCAGCUCACAGUGGGCUCCAGGCCCGUUUUUACUCAGACAGGGAC | 0.24
AAGAGAUGGAUGUCGUGAUGCCUCGUUGCCUUAAUGAGAGCUGAGUCAGCUGUCCUUCACCCUGGGAAAGUCCAUGCCAGCUGUGGACUGCUGGGAGCCAUGUUUGUCAC | 0.288
CACUUGGGUAGAAAUACAGUCUGAUCAAGCAACGGUGUAAGGAAAAGUCCCUAAUUCACAACCUCCUUGAUCUUAUGACCCUUGAAAACCUCAAGACCGAAGCCUGACCA | 0.314
UCUCCUGACCCGUGGUGUUGCAGUCUGUUGUCACCAGCCUUGUUUUAGUGUGUAUAUAUGUCGCCCCUGUGAUGCAUAUAUACACAGGUAUUAAAUAUAUCGCUCUAUAU | 0.573
UUGCUGUGGAGACCCCGUGGCUCUGCACUUUACCCGUGAGGGCAUUAACCUGACCCAGCAUGGAAGGAGGUGUGGGUACCUUCUCAGAAAGUCCUUAAUUUACAGUGGCC | 2.1
GGAUCGCAGCAUCACGAAGGUGGAGAAGCCCUGCUCUAUGGGAAAUGUCCCUGGUAUCUCUGUGGUCAACUAAGAGUGGUUCUACAAAGAUAGUCCUCAGUGAAAACAGG | 0.389
CUGUCAAAAUACGUUACUUGCAUUUAUUCCAAAUAAUCUCGUUUACUCUUAACUGUUUAUGCAAAUUGUAUAAGGUUUCUUAUGCCCAAGCUUGAAAAAUGAUUUCCCAG | 0.904
CAUUUCAAAUGAGGUAUAUUUCUUAUUAGGGAAAUUAAAGUCCCUAUAUUUAUUAUAUAUUUUUUCCUUAUUAACAGAGUAUUAAUCUAGUAAAAAAUAACCCAGCAGUA | 0.713
GUGGCCUCUGCCUGGCUGUUUGGGGUCCUGCACGGCUUUCCCACCACCUGUAGCUCUUGUUGACCUGCCUGUUCACCUCAUGAGUGAAGCGUCUGCCUGGCAGUGGGCCA | 2.55

Series 5 — method: protein-binding microarray; molecule type: double-stranded DNA, one strand shown; sample: in vitro; tested at: 250 nM; notes: 60-bp whole probe; together with: salmon DNA 0.4 mg/ml; reference: random background probes; reading: higher = stronger binding; shared flanks, not repeated: GCCTAGCAC … GTCTTGATTCGCTTGACGCTGCTG
Target: Interferon regulatory factor 5, full length, phosphomimetic (IRF5, Homo sapiens, UniProt Q13568-2, residues 1-514, K96S/S451D/S453D/S456D/S462D)
Strand | log fluorescence
TTAGGTATCGTTCTCGGTTAGTGCTAG | 3.36 z-score
GACGGTTTCGGGTATCGCGACGTGCTA | 7.78 z-score
GACGGTATCGGGCTGGGGACGTGCTAG | 1.08 z-score
GACGATATCAGCCTGGAGACGTGCTAG | 0.338 z-score
GAGTCTTCTCCTCTAGGTTCGTGCTAG | -0.104 z-score
TTGGCTTCCTCTTTCTCTGCGTGCTAG | 0.397 z-score
CTTCCTCTTTCTCTGCTACCGTGCTAG | 1.34 z-score
TCACCAATCAGGACTCAGACTGTGCTA | 0.0718 z-score
GACGATATCGGGTCTGGAGACGTGCTA | 1.26 z-score
TTAGGTATCGACTTTCGTTTAGTGCTA | 8.2 z-score
GACGAACTGAGACTGGAAACGTGCTAG | -0.172 z-score
GACGGTATCCTTCTCGTGACGTGCTAG | 0.168 z-score
TTAGGTATGCTTATCCTTTAGTGCTAG | -0.176 z-score
GACGGTTTCGGGATTGGGGACGTGCTA | 5.78 z-score
CTAGAACTGAGTTTCGATTAGTGCTAG | 9.36 z-score
TTAGGTTTCGACACTGGGATAGTGCTA | 5.81 z-score
TTAAATTTCAGTTTCGATTAGTGCTAG | 10.1 z-score
TCAATGATCCAGTTTTACACTGTGCTA | 0.181 z-score

Series 6 — method: universal PBM; molecule type: double-stranded DNA, one strand shown; sample: in vitro; tested at: 600 nM; reading: higher = stronger binding
Target: Sal-like protein 4, full length isoform A (SALL4, Homo sapiens, UniProt Q9UJQ4, residues 1-1053)
Sequence of UniProt Q9UJQ4 (whole entry, looked up): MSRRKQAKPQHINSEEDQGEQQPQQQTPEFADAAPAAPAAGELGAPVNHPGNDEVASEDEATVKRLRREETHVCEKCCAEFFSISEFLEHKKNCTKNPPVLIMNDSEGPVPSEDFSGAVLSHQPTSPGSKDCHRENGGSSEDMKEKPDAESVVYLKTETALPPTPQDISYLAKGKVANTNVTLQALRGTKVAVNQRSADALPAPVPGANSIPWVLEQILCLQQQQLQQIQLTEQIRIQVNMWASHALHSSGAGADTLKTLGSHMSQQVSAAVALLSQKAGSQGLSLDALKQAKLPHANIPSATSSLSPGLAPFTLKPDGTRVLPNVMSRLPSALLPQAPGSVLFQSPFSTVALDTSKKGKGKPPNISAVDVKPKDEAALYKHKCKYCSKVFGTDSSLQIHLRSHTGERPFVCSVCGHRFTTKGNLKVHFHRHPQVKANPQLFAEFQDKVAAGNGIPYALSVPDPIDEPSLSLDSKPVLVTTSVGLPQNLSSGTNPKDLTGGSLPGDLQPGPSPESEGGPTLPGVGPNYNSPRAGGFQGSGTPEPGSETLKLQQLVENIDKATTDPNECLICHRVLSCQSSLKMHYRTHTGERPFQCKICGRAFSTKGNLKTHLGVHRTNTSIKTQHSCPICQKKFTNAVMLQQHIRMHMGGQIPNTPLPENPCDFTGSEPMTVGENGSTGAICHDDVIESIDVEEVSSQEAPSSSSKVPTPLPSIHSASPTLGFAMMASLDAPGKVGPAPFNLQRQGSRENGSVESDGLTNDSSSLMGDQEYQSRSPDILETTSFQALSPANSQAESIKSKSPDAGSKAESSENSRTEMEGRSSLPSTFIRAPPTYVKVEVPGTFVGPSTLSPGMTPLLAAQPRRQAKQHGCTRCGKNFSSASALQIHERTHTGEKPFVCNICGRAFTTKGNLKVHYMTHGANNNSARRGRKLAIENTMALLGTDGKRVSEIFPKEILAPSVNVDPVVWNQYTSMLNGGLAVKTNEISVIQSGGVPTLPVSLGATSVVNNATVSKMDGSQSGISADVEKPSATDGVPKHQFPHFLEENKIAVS
Notes: 8-mer, flanks averaged, mean of replicates
Strand | E-score
AGCGGCGA | -0.176
TAACGTAA | 0.214
ACACTTAG | 0.141
GAAGCCAC | -0.0178
CAATCTTA | 0.179
AAGCCGGG | -0.291
AATTCGGA | 0.0639
CGGCGCAC | -0.319
GACGCCCC | -0.396
CGAGTGAG | -0.215

Series 7 — method: competition protein-binding microarray; molecule type: double-stranded DNA, one strand shown; sample: in vitro; tested at: 2 µM; together with: Pho4 competitor, 0.05 µM; reading: higher = stronger binding; shared flanks, not repeated: … GTCTTGATTCGCTTGACGCTGCTG
Target: Centromere-binding protein 1, full length, His-tagged (CBF1, Saccharomyces cerevisiae, UniProt P17106, residues 1-351)
Sequence of UniProt P17106 (whole entry, looked up): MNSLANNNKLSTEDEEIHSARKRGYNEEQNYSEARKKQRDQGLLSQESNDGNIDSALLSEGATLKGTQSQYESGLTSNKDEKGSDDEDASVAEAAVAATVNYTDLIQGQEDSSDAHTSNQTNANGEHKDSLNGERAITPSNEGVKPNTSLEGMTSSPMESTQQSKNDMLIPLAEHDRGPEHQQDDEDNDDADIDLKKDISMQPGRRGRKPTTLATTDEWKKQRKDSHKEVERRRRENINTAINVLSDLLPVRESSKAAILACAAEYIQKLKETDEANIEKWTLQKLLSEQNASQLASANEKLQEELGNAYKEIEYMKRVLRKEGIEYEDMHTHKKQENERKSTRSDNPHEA
Notes: whole 60-bp probe, lowest competitor level
Strand | fluorescence intensity
TATCTCTATCCTGCGACCGTGATGGTACCGAAAGTA | 68.2 a.u.
AGCGGCATAAGTCGGCACGTCCCCTGAAAGTAGGCT | 57.6 a.u.
CTTCTGTAAATTTGGCGGGTGGGTGGACGCGCCCCG | 75.5 a.u.
ACTCCCTGGAAAAAGCACGTGCCGAGCTGGATCTGC | 1970 a.u.
CGGGGTTAAGTTTTTCACGTGCACTGCTTGCAGCAG | 837 a.u.
TGAAGAGTGTTGTTTCATGTGACAGTGAATGCCATT | 417 a.u.
TGCGCAACAACTTGTTGGGTGGGTGTATGTCTAGAA | 51.2 a.u.
TAAACTCACCTAATTCGCATGACAAGGTCCCTGAAA | 68.9 a.u.
AGGCAGAAACACTGACTCGTGGGTACGTCCACCCAG | 59.6 a.u.
CCAGATCCGGATCCAAACATGACAATCGAAGATTAT | 83 a.u.
CGTCCTAGTGATTTTCACGTGGTTTCCATGAGGAAG | 921 a.u.
GTAGTTTGCATTTTGCACGTTTCCCTTTCCATGCAA | 150 a.u.
AACGAGTCTGACGATGACGTGACTCGCTCCACTAAG | 129 a.u.
CATACCCAACCTTTTCACGTGCAGTAAGATATTTGT | 897 a.u.
